# Measured values of several laboratories.
# Numbered parts are unrelated; each lists some results of a single study. Several values in a cell are separate wells, animals, samples, runs or records.
# Chain of UniProt Q8IWQ3 (whole entry, looked up): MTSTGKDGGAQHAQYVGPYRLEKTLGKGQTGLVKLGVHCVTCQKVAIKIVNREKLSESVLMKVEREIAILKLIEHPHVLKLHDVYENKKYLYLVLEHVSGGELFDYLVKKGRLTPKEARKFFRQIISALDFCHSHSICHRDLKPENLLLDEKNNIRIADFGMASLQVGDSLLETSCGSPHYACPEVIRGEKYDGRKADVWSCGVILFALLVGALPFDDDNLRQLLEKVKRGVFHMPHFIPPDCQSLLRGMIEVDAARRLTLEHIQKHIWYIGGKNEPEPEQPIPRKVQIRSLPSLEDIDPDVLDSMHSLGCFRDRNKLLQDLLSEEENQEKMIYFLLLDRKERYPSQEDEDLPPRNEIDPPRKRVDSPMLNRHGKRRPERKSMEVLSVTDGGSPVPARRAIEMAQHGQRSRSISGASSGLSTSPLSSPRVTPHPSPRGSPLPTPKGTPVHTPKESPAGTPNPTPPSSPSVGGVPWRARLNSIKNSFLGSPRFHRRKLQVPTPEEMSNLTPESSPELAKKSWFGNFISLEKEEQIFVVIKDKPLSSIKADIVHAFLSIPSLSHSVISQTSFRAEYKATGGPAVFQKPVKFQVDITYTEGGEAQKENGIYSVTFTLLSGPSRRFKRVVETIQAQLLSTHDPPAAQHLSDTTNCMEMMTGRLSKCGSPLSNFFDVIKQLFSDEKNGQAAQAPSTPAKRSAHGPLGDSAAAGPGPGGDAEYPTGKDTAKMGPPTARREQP
# Chain of UniProt P53355 (whole entry, looked up): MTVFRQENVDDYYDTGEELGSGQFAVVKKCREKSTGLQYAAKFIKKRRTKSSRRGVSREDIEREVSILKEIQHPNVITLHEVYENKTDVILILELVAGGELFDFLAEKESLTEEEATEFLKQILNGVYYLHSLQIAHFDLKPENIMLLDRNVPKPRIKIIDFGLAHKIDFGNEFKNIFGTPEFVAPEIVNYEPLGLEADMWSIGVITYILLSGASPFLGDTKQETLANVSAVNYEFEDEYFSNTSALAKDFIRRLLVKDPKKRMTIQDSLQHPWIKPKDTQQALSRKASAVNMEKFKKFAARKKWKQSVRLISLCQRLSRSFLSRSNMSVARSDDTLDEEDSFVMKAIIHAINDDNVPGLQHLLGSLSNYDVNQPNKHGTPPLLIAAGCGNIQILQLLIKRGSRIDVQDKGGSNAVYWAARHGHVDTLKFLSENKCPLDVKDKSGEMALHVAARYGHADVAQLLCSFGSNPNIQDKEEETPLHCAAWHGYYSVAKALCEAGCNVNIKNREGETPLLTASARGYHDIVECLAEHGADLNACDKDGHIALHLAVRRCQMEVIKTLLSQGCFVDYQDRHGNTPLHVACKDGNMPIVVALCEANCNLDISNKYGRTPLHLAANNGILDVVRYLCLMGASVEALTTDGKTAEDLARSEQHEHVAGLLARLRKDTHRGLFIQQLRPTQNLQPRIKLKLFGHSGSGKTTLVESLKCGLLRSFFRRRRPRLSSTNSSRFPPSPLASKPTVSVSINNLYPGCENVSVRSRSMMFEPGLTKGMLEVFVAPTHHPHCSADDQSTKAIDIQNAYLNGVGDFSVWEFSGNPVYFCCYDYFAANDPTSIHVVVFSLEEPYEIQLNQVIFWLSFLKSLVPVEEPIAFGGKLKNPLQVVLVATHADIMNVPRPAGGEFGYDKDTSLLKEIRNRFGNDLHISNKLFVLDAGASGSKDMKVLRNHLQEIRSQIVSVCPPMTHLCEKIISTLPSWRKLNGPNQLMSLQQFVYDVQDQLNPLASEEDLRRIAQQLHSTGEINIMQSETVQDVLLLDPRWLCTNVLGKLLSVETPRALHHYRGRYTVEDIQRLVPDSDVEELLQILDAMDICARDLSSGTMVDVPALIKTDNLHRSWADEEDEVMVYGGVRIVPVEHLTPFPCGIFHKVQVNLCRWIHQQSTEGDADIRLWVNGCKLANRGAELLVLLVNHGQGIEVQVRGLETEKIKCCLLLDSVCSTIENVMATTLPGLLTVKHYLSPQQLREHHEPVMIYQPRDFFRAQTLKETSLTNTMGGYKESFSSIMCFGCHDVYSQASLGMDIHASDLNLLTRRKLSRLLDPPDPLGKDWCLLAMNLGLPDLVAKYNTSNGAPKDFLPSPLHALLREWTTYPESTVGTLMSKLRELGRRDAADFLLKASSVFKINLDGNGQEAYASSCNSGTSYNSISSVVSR
# Chain of UniProt Q9Y6M4 (whole entry, looked up): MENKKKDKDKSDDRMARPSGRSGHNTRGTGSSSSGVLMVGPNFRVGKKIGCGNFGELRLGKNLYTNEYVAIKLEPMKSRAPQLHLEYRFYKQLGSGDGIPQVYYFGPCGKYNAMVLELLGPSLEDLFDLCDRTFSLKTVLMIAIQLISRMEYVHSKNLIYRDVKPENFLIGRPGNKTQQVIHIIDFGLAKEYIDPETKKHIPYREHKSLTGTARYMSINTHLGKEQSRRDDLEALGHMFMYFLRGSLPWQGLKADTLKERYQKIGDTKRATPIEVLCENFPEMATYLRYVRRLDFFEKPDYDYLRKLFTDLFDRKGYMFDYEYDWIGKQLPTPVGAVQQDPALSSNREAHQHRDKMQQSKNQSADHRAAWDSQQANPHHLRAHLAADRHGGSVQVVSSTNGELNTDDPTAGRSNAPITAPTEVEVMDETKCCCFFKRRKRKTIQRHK
# Chain of UniProt O94921 (whole entry, looked up): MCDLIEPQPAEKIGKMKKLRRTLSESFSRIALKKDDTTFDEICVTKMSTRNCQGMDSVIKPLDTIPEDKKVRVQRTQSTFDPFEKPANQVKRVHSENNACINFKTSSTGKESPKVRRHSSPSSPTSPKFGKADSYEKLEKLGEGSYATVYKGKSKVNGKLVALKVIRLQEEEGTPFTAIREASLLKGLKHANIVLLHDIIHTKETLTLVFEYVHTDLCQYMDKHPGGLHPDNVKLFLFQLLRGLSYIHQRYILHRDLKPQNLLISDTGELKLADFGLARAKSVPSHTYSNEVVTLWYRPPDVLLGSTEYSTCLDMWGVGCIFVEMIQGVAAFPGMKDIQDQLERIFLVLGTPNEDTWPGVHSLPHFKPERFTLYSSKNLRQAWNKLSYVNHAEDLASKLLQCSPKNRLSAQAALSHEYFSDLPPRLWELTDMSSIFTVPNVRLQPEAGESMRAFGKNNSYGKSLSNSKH
# Chain of UniProt Q9NYY3 (whole entry, looked up): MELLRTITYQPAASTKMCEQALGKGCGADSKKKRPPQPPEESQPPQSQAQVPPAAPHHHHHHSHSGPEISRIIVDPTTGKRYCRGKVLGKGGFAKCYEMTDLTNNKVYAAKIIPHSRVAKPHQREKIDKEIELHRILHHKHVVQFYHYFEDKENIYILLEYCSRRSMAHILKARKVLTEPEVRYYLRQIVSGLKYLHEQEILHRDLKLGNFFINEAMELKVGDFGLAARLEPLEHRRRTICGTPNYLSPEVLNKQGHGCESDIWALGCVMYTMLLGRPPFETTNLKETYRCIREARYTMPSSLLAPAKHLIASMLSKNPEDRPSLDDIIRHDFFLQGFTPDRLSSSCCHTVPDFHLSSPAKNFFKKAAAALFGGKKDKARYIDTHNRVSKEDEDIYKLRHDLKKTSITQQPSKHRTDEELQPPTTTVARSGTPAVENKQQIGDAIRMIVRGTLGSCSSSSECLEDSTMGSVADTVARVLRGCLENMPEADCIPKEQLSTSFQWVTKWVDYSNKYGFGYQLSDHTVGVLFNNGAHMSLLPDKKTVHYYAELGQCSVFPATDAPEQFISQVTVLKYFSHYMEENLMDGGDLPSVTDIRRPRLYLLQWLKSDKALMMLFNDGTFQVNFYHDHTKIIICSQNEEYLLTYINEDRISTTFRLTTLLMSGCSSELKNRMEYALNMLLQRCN

# Series 1 — observed: enzyme activity; mode: inhibitor; concentration: 0.5 µM; reference: control
# Target: PAS domain-containing serine/threonine-protein kinase (PASK, Homo sapiens, UniProt Q96RG2)
# Chain of UniProt Q96RG2 (whole entry, looked up): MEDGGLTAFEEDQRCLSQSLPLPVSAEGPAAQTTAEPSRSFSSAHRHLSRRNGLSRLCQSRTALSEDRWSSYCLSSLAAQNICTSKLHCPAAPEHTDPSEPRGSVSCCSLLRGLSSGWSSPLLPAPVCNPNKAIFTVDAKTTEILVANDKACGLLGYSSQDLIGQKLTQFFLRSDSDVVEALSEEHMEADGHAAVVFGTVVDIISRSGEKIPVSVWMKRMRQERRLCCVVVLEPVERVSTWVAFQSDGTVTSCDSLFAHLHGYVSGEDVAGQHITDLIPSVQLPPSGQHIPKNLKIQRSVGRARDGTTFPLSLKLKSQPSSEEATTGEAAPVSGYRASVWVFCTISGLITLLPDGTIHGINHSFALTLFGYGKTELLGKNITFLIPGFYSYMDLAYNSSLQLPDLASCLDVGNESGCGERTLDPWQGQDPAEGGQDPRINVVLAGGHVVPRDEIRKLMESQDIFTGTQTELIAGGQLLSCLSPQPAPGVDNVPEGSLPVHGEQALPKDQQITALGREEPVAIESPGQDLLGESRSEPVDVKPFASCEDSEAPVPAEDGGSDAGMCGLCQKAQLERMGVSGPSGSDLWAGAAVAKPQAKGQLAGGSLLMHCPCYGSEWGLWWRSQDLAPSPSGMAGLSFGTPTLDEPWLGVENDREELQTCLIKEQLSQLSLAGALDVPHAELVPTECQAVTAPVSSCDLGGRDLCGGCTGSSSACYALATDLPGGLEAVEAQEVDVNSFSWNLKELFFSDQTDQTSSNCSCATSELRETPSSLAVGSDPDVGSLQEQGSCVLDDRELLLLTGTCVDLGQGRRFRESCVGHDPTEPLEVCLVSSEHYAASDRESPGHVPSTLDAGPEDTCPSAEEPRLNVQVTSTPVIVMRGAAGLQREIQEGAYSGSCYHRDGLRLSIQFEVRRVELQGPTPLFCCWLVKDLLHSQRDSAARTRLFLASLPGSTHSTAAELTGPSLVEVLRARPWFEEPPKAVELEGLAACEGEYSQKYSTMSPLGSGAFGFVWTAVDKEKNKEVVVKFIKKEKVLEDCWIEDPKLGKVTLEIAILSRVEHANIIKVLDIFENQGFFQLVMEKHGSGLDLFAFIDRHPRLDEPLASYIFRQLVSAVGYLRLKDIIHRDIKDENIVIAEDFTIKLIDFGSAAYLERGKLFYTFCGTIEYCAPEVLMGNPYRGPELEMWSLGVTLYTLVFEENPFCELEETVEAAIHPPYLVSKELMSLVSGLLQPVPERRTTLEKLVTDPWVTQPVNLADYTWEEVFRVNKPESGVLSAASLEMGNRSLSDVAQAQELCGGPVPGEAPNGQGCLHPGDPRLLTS
Structure (SMILES),remaining activity
Cc1cc(Nc2nc(-c3ccccc3)nc3ccccc23)n[nH]1,96.4%
O=S(=O)(NCCNC/C=C/c1ccc(Br)cc1)c1cccc2cnccc12,94.5%
COc1ccc(S(=O)(=O)N(CCO)c2ccccc2CN(C)CC=Cc2ccc(Cl)cc2)cc1,103%
O=C1Cc2c([nH]c3ccc([N+](=O)[O-])cc23)-c2ccccc2N1,86.9%
CC(C)(C)n1nc(Cc2cccc3ccccc23)c2c(N)ncnc21,101%
Nc1ncnc2c1cnn2-c1ccccc1,96.8%
CCCC(=O)Oc1ccc2[nH]c(C(=O)c3cc4ccccc4[nH]3)cc2c1,88.7%
Cc1ccc(NC2=CC(=O)c3sc(C)nc3C2=O)cc1,89.4%
Cc1cncc2cccc(S(=O)(=O)N3CCCN(C(=O)CN)C[C@@H]3C)c12,105%
Nc1nccc(-c2c(-c3ccc(F)cc3)ncn2C2CCNCC2)n1,98.5%
N#CC(=C(N)Sc1ccc(N)cc1)c1ccccc1C(F)(F)F,101%
CC(=O)c1ccc(N2CCOCC2)cc1O,95%
COc1cc(Nc2c(C#N)cnc3cc(OCCCN4CCN(C)CC4)c(OC)cc23)c(Cl)cc1Cl,109%

# Series 2 — technique: competition with immobilised ligand; concentration: 1 µM
# Compound: O=C(NCc1ncc(C(F)(F)F)cc1Cl)c1ccc2c(c1)C1(CCS(=O)(=O)CC1)[C@@H](C1CC1)N2S(=O)(=O)c1ccc(F)cc1
target,observed,remaining binding [%]
"CSNK1G3 (Homo sapiens, UniProt Q9Y6M4)",cell-free assay,100
"CDK14 (Homo sapiens, UniProt O94921)",cell-free assay,100
"BRAF (Homo sapiens, UniProt P15056, V600E)",cell-free assay,90
"PLK2 (Homo sapiens, UniProt Q9NYY3)",cell-free assay,74
"WNK3 (Homo sapiens, UniProt Q9BYP7)",cell-free assay,70
"CAMK4 (Homo sapiens, UniProt Q16566)",cell-free assay,71
"DAPK1 (Homo sapiens, UniProt P53355)",cell-free assay,100
"DCLK3 (Homo sapiens, UniProt Q9C098)",cell-free assay,69
"BMPR1A (Homo sapiens, UniProt P36894)",binding,100
"BRSK2 (Homo sapiens, UniProt Q8IWQ3)",cell-free assay,100
"KIT (Homo sapiens, UniProt P10721, D816V)",cell-free assay,89
"PRKD2 (Homo sapiens, UniProt Q9BZL6)",cell-free assay,90

# Series 3 — cell line: mouse MPNST tumor cells; technique: high-content immunofluorescence imaging; item: nuclear SOX9; concentration: 10 µM; time: 12 h; notes: mean of 2 replicates; reference: DMSO control; direction: higher = more nuclear SOX9
SMILES,nuclear SOX9 intensity
COc1ccc(Cl)cc1C(=O)NCCc1ccc(S(=O)(=O)NC(=O)NC2CCCCC2)cc1,123 % of DMSO and 105 % of DMSO
Brc1c(NC2=NCCN2)ccc2nccnc12,90.9 % of DMSO and 99.3 % of DMSO
O=Nc1c(O)[nH]c2c(Cl)c(Cl)ccc12,96.4 % of DMSO
Cc1nc(=O)c2cc(CN(C)c3ccc(C(=O)N[C@@H](CCC(=O)O)C(=O)O)s3)ccc2[nH]1,110 % of DMSO
CCC(C)C1OC2(CCC1C)CC1CC(CC=C(C)C(OC3CC(OC)C(OC4CC(OC)C(O)C(C)O4)C(C)O3)C(C)C=CC=C3COC4C(O)C(C)=CC(C(=O)O1)C34O)O2 (centres unmarked),121 % of DMSO
NS(=O)(=O)c1cc(C(=O)O)c(NCc2ccco2)cc1Cl,100 % of DMSO and 82.5 % of DMSO
CCCCC(F)(F)[C@@]1(O)CC[C@H]2[C@@H](CC(=O)[C@@H]2CCCCCCC(=O)O)O1,86.7 % of DMSO
C[N+](C)(C)CCOC(N)=O,93.8 % of DMSO and 104 % of DMSO

# Series 4 — sample: EL4 tumour; dose: dose not given; reference: vehicle
# SMILES: CC(=O)N[C@@H](Cc1c[nH]c2ccccc12)C(=O)N[C@@H](CCC(=O)C=[N+]=[N-])C(=O)OC(C)C
item,species,log2 fold change
glycine,"mouse, EL4 tumour-bearing",-0.0577
cis/trans aconitate,Mus musculus,-0.446
ribose 1-phosphate,"mouse, EL4 tumour-bearing",-0.294
AMP,"mouse, EL4 tumour-bearing",-0.0068
succinate,"mouse, EL4 tumour-bearing",-1.46
